{"data": "Values quoted from earlier work as cited in several papers", "note": "Lines come from different studies, so protocols differ. Numbers after ± are the reported error.", "chain of UniProt Q9UIK4 (whole entry, looked up)": "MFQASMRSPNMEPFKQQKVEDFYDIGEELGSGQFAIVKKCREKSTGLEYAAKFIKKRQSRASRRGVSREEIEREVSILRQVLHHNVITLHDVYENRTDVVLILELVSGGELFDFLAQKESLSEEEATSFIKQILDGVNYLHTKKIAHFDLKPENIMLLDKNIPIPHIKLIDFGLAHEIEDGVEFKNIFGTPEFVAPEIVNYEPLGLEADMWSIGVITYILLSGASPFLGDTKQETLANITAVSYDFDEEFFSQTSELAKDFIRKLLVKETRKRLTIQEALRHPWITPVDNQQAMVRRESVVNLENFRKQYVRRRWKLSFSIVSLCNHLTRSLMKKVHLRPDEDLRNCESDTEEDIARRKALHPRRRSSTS"}
{"Compound": "CCCCCCCCC/C(=C\\C1=C(C)C(=O)C(OC)=C(OC)C1=O)C(=O)O", "system": "mouse laser-induced CNV model", "setting": "oral, dose not given", "measurement": "lesion volume reduction", "result": "50%"}
{"Compound": "CC(=O)Oc1cc2c(s1)CCN(C(C(=O)C1CC1)c1ccccc1F)C2 (centres unmarked)", "assay": "VerifyNow P2Y12", "system": "STEMI patients", "setting": "60 mg loading dose, 2 h", "measurement": "high residual platelet reactivity", "result": "44%"}
{"Compound": "CC1(C)CCC(CN2CCN(c3ccc(C(=O)NS(=O)(=O)c4ccc(NCC5CCOCC5)c([N+](=O)[O-])c4)c(Oc4cnc5[nH]ccc5c4)c3)CC2)=C(c2ccc(Cl)cc2)C1", "system": "human, B-cell malignancies other than CLL/SLL", "setting": "dose not given", "measurement": "objective response rate", "result": "44%"}
{"Compound": "CC1(C)S[C@@H]2[C@H](NC(=O)[C@H](N)c3ccccc3)C(=O)N2[C@H]1C(=O)O", "tested on": "Pseudomonas aeruginosa", "system": "clinical isolate RKI-No_369/11", "measurement": "MIC", "result": "> 16 µg/mL"}
{"Compound": "Nc1cc(C(F)(F)F)c(-c2nc(N3CCOCC3)nc(N3CCOCC3)n2)cn1", "tested on": "Death-associated protein kinase 2 (DAPK2, Homo sapiens, UniProt Q9UIK4)", "assay": "enzyme activity", "setting": "10 µM", "how to read": "relative to: untreated", "measurement": "remaining activity", "result": "94%"}
{"Compound": "C=CC(=O)Nc1cc(Nc2nccc(Nc3cc(Cl)c(F)cc3C(C)(C)O)n2)c(OC)cc1N1CC[C@@H](N(C)C)C1", "assay": "phase 2 trial", "system": "human, NSCLC with brain metastases", "setting": "dose not given", "measurement": "objective response rate", "result": "48.4%"}
{"Compound": "Nc1cccc2c1C(=O)N(C1CCC(=O)NC1=O)C2=O (centres unmarked)", "system": "relapsed refractory multiple myeloma patients", "setting": "dose not given, phase II, sample A patients, together with: low-dose dexamethasone", "measurement": "overall response rate", "result": "33%"}
{"Compound": "CCN(c1cc(-c2ccc(CN3CCOCC3)cc2)cc(C(=O)NCc2c(C)cc(C)[nH]c2=O)c1C)C1CCOCC1", "system": "epithelioid sarcoma patients", "setting": "cohorts 5 and 6", "measurement": "combined ORR", "result": "13%"}
{"Compound": "COc1cc(N2CCC3(CCN(C)CC3)CC2)ccc1Nc1ncc(Cl)c(Nc2ccccc2P(C)(C)=O)n1", "system": "ALK TKI-naive ALK-positive NSCLC patients", "setting": "dose not given, measurable CNS metastases at baseline", "measurement": "intracranial objective response rate", "result": "90.9%"}
{"Compound": "COc1cccc2c1C(=O)c1c(O)c3c(c(O)c1C2=O)C[C@@](O)(C(=O)CO)C[C@@H]3O[C@H]1C[C@H](N)[C@H](O)[C@H](C)O1", "system": "soft tissue sarcoma incl. epithelioid", "setting": "dose not given", "measurement": "overall response rate", "result": "~24%"}
{"Compound": "COc1c(Cl)cccc1Nc1c(-c2ccncc2OC[C@@H]2COCCO2)[nH]c2c1C(=O)NCC2", "system": "patients, NSCLC, HER2-mutant, previously treated", "setting": "dose not given", "measurement": "overall response rate", "result": "59%"}
{"Compound": "Cc1[nH]c(C)c(-c2ccc(CCc3ccc(C(F)(F)F)cc3)nc2)c(=O)c1Cl", "tested on": "Plasmodium falciparum", "assay": "whole cell extended time", "system": "3D7", "setting": "72 h", "measurement": "IC50", "result": "90 nM"}
{"Compound": "COC(=O)C1=C(C)NC(C)=C(C(=O)OC)C1c1c(-c2cc(OC)c(OC)cc2[N+](=O)[O-])nc2sccn12", "system": "guinea pig right atrium", "setting": "5x1.000e-05 M", "measurement": "decrease in heart rate", "result": "90 ± 0.8%"}
{"Compound": "Cc1cc(-c2nccc3c2ccn3CC(=O)Nc2ccc(-c3cnccn3)cn2)ccn1", "system": "mouse, bleomycin-induced pulmonary fibrosis", "setting": "oral, 25 mg/kg once daily, days 7-21", "measurement": "Ashcroft score", "result": "decreased"}
{"Compound": "N=C(N)NCCC[C@H](NC(=O)[C@H](CCCNC(=N)N)NC(=O)[C@H](CCCCN)NC(=O)[C@H](CCC(N)=O)NC(=O)[C@H](CCCCN)NC(=O)[C@H](Cc1ccc(O)cc1)NC(=O)[C@@H](N)CCCCN)C(=O)N[C@@H](CO)C(=O)N[C@@H](Cc1ccc(O)cc1)C(=O)N[C@@H](CCCCN)C(=O)O", "system": "beagle dog tooth defect model", "measurement": "lowest dose dentin formation", "result": "2.5 µg/tooth"}
{"Compound": "C[C@H]1COCCN1c1nc(-c2cnc(N)cc2C(F)F)nc(N2CCOCC2)n1", "tested on": "LS174T", "measurement": "GI50", "result": "403 nM"}
{"Compound": "C[C@@H](NC(=O)N1C(=O)[C@H](Cc2ccnc(N)c2)[C@H]1C(=O)O)C1CCCCC1", "system": "human", "setting": "intravenous infusion, 0.6 mg/kg/h, 5 days", "how to read": "relative to: baseline", "measurement": "aPTT ratio", "result": "~1.7"}
{"Compound": "O=C(c1ccc(Cl)cc1)N(Cc1ccccc1)C1CCCCC1", "system": "mouse, LPS-induced ALI", "setting": "dose not given, together with: intratracheal LPS", "measurement": "RAGE expression", "result": "decreased"}
{"Compound": "CNC(C)C1CCC(N)C(OC2C(N)CC(N)C(OC3OCC(C)(O)C(NC)C3O)C2O)O1 (centres unmarked)", "tested on": "Pseudomonas aeruginosa", "system": "clinical isolate RKI-No_369/11", "measurement": "MIC", "result": "8 µg/mL"}
{"Compound": "CN[C@@H](C)C(=O)N[C@H]1CN(S(=O)(=O)c2cccc(S(=O)(=O)N3CC[C@H]4CC[C@@H](C(=O)NC(c5ccccc5)c5ccccc5)N4C(=O)[C@@H](NC(=O)[C@H](C)NC)C3)c2)CC[C@H]2CC[C@@H](C(=O)NC(c3ccccc3)c3ccccc3)N2C1=O", "system": "advanced solid tumour patients", "setting": "first cycle", "measurement": "stable disease after cycle", "result": "21.7%"}
{"Compound": "Cc1cc(C)c(CNC(=O)c2cc(Cl)c3c(c2C)O[C@@](C)([C@H]2CC[C@H](N(C)C)CC2)O3)c(=O)[nH]1", "system": "relapsed/refractory PTCL patients", "setting": "dose not given", "measurement": "overall response rate", "result": "55.6%"}
{"Compound": "CCCCC1(O)OC(=O)C2=C1CCC=C2 (centres unmarked)", "assay": "ADP-induced platelet aggregation, inhibitor", "system": "rabbit blood", "measurement": "effective dose", "result": "5 mmol/L"}
{"Compound": "COC(=O)C1=C(C)NC(C)=C(C(=O)OC)C1c1c(-c2c(OC)ccc(OC)c2[N+](=O)[O-])nc2sccn12", "assay": "calcium-induced contraction, relaxant", "system": "guinea pig ileum longitudinal muscle", "measurement": "IC50", "result": "11000 nM"}
{"Compound": "CCN1[C@@H](C(=O)NC23CCC(C(=O)O)(CC2)CC3)[C@H](c2cccc(Cl)c2F)[C@]2(C(=O)Nc3cc(Cl)ccc32)C12CCCCC2", "system": "mouse", "setting": "dose not given", "measurement": "M2 macrophage population", "result": "decreased"}
{"Compound": "O=C(O)CN(CC(=O)O)[C@H]1CCCC[C@@H]1N(CC(=O)O)Cc1ccccn1", "setting": "37 °C, together with: 25 equiv Zn2+", "measurement": "transmetallation rate constant", "result": "0.000676 s⁻¹"}
{"Compound": "CCC/C=C1\\OC(=O)C2=C1CC[C@@H](O)[C@@H]2O", "assay": "ADP-induced platelet aggregation, inhibitor", "system": "rabbit blood", "measurement": "effective dose", "result": "5 mmol/L"}
{"Compound": "C=CCN(/C=C1/C(=O)O[C@H](COC)[C@@]2(C)C1=C(O)C(=O)C1=C2[C@H](OC(C)=O)C[C@]2(C)C(=O)CC[C@@H]12)CC=C", "system": "advanced solid tumour patients", "setting": "dose not given, days 1–5, 8–12, 28-day cycle", "how to read": "relative to: patients", "measurement": "stable disease", "result": "22%"}
{"Compound": "Cc1[nH]c(C)c(-c2ccc(OCc3cc(C(F)(F)F)cc(C(F)(F)F)c3)nc2)c(=O)c1Cl", "tested on": "Plasmodium falciparum", "assay": "whole cell extended time", "system": "3D7", "setting": "72 h", "measurement": "IC50", "result": "110 nM"}
{"Compound": "CC(C)(C)NCC(O)c1ccc(O)c(CO)c1 (centres unmarked)", "system": "COPD patients", "setting": "inhaled, 400 µg single, 6 h post-dose", "how to read": "relative to: placebo", "measurement": "trough FEV1 change from baseline", "result": "0 mL"}
{"Compound": "COC(=O)C1=C(C)NC(C)=C(C(=O)OC)C1c1c(C)nc2sc(Cl)cn12", "assay": "negative inotropic effect", "system": "guinea pig, isolated left atrium", "measurement": "EC50", "result": "130 nM"}
{"Compound": "COc1ccc(CC(C)NCC(O)c2ccc(O)c(NC=O)c2)cc1 (centres unmarked)", "system": "COPD patients", "setting": "inhaled, 12 µg single, 12 h post-dose", "how to read": "relative to: placebo", "measurement": "trough FEV1 change from baseline", "result": "45 mL"}
{"Compound": "CC(C)C[C@H](NC(=O)[C@H](CC(C)C)NC(=O)[C@H](Cc1c[nH]c2ccccc12)NC(=O)[C@H](CCC(=O)O)NC(=O)[C@@H](NC(=O)[C@H](Cc1ccccc1)NC(=O)[C@H](CCC(=O)O)NC(=O)[C@H](CCCCNC(=O)COCCOCCNC(=O)COCCOCCNC(=O)CC[C@H](NC(=O)CCCCCCCCCCCCCCCCCCC(=O)O)C(=O)O)NC(=O)[C@H](C)NC(=O)[C@H](CCCCN)NC(=O)[C@H](CCCCN)NC(=O)[C@H](CCC(=O)O)NC(=O)[C@H](CC(=O)O)NC(=O)[C@H](CC(C)C)NC(=O)[C@H](Cc1ccc(O)cc1)NC(=O)[C@H](CCCCN)NC(=O)[C@H](CO)NC(=O)[C@H](Cc1ccc(O)cc1)NC(=O)[C@H](CC(=O)O)NC(=O)[C@H](CO)NC(=O)[C@@H](NC(=O)[C@H](Cc1ccccc1)NC(=O)[C@@H](NC(=O)CNC(=O)[C@H](CCC(N)=O)NC(=O)C(C)(C)NC(=O)[C@@H](N)Cc1c[nH]cn1)[C@@H](C)O)[C@@H](C)O)C(C)C)C(=O)N[C@@H](CCC(=O)O)C(=O)NCC(=O)NCC(=O)N1CCC[C@H]1C(=O)N[C@@H](CO)C(=O)N[C@@H](CO)C(=O)NCC(N)=O", "system": "human obesity or overweight", "setting": "6 mg, 24 weeks, trial", "measurement": "body weight loss", "result": "11%"}
{"Compound": "COC(=O)C1=C(C)NC(C)=C(C(=O)OC)C1c1c(C)nc2sc(C)cn12", "assay": "negative inotropic effect", "system": "guinea pig left atrium", "setting": "5×100 nM", "measurement": "decrease in contractile force", "result": "43 ± 3.3%"}
{"Compound": "CC(=O)O[C@H]1C(=O)[C@@]2(C)[C@H]([C@H](OC(=O)c3ccccc3)[C@]3(O)C[C@H](OC(=O)[C@H](O)[C@@H](NC(=O)c4ccccc4)c4ccccc4)C(C)=C1C3(C)C)[C@]1(OC(C)=O)CO[C@@H]1C[C@@H]2O", "system": "advanced esophageal cancer patients", "setting": "80 mg/m2 weekly, monotherapy", "measurement": "median time to progression", "result": "3 months"}
{"Compound": "CCc1cn2c(C3C(C(=O)OC)=C(C)NC(C)=C3C(=O)OC)c(-c3cc(OC)ccc3OC)nc2s1", "assay": "negative inotropic effect", "system": "guinea pig, isolated left atrium", "measurement": "EC50", "result": "2240 nM"}
{"Compound": "O=C(O)c1ccc(O)c(O)c1", "assay": "anti-inflammatory effect", "system": "mouse LPS/D-galactosamine sepsis", "setting": "intraperitoneal", "measurement": "effective dose", "result": "50 mg/kg"}
{"Compound": "COC(=O)C1=C(C)NC(C)=C(C(=O)OC)C1c1c(-c2ccccc2OC)nc2sccn12", "assay": "decrease in atrial rate", "system": "guinea pig right atrium", "measurement": "EC50", "result": "4890 nM"}
{"Compound": "Nc1ccn([C@@H]2O[C@H](CO)[C@@H](O)C2(F)F)c(=O)n1", "system": "human pancreatic cancer, mouse xenograft", "setting": "dose not given", "measurement": "tumour regression rate", "result": "36%"}
{"note": "A few entries again:"}
{"Compound": "Nc1ccn([C@@H]2O[C@H](CO)[C@@H](O)C2(F)F)c(=O)n1", "system": "human pancreatic cancer, mouse xenograft", "setting": "dose not given", "measurement": "tumour regression rate", "result": "36%"}
{"Compound": "COc1cccc2c1C(=O)c1c(O)c3c(c(O)c1C2=O)C[C@@](O)(C(=O)CO)C[C@@H]3O[C@H]1C[C@H](N)[C@H](O)[C@H](C)O1", "system": "soft tissue sarcoma incl. epithelioid", "setting": "dose not given", "measurement": "overall response rate", "result": "~24%"}
{"Compound": "Cc1cc(-c2nccc3c2ccn3CC(=O)Nc2ccc(-c3cnccn3)cn2)ccn1", "system": "mouse, bleomycin-induced pulmonary fibrosis", "setting": "oral, 25 mg/kg once daily, days 7-21", "measurement": "Ashcroft score", "result": "decreased"}
{"Compound": "Nc1cc(C(F)(F)F)c(-c2nc(N3CCOCC3)nc(N3CCOCC3)n2)cn1", "tested on": "Death-associated protein kinase 2 (DAPK2, Homo sapiens, UniProt Q9UIK4)", "assay": "enzyme activity", "setting": "10 µM", "how to read": "relative to: untreated", "measurement": "remaining activity", "result": "94%"}
{"Compound": "O=C(c1ccc(Cl)cc1)N(Cc1ccccc1)C1CCCCC1", "system": "mouse, LPS-induced ALI", "setting": "dose not given, together with: intratracheal LPS", "measurement": "RAGE expression", "result": "decreased"}
{"Compound": "Cc1[nH]c(C)c(-c2ccc(OCc3cc(C(F)(F)F)cc(C(F)(F)F)c3)nc2)c(=O)c1Cl", "tested on": "Plasmodium falciparum", "assay": "whole cell extended time", "system": "3D7", "setting": "72 h", "measurement": "IC50", "result": "110 nM"}
